Results pooled from the literature.
Every numbered part comes from another study and shows a few of its results, in no order. Positions count from the first letter of the parent shown.

Study 1
Target: Ras GTPase-activating protein-binding protein 1, full length (G3BP1, Homo sapiens, UniProt Q13283)
Sequence of UniProt Q13283 (whole entry, looked up): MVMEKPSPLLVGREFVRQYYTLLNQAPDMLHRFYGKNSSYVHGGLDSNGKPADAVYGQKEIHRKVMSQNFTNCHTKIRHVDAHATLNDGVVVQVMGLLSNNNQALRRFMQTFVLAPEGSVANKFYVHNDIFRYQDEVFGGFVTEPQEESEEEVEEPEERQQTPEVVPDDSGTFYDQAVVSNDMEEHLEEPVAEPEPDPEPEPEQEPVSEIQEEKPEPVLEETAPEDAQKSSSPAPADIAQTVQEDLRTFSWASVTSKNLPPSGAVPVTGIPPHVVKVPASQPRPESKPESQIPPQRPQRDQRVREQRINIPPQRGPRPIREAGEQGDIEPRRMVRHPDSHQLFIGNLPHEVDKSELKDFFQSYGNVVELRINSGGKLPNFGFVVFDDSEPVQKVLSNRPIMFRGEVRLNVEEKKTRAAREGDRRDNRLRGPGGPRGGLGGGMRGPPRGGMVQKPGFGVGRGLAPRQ
Method: RNA Bind-n-Seq
Molecule type: RNA
Medium: in vitro
Concentration: 200 nM
Setting: whole 134-nt RNA, ends assumed
Added: 150 mM KCl
Baseline: input library
Direction: higher = stronger binding
All sequences stand within: GGGAGUUCUACAGUCCGACGAUC … UGGAAUUCUCGGGUGUCAAGG
| Sequence | log2 enrichment |
| --- | --- |
| GUCCUGUGCUACACAUCGUAUGUACCGAAUCAAACCCCCCCAAAUUUAAAUUUUUAAAAAAGUAUUAUGUUACGCCGUUCGGAUCUGCAC | 0.278 |
| AAGUCCUGUGCUACACAUCGUAUGUACCGAAUCGGGUGGGAAAAAAAGGGUUUGGGAAAGUAUUAUGUUACGCCGUUCGGAUCUGCACUU | 0.207 |
| AGUCCUGUGCUACACAUCGUAUGUACCGAAUCGGGGCCCCCGGGCCCCCGGCCCCCGGAAAGUAUUAUGUUACGCCGUUCGGAUCUGCAC | -0.928 |
| CUGUGCUACACAUCGUAUGUACCGAAUCGGGGUUUUUUUGGGGUUUUUGGGGUUUUUGGGGAAAGUAUUAUGUUACGCCGUUCGGAUCUG | -0.513 |
| UGGGAGGUGGAUUUUGUUUAUUUUUUUAGCUCAUUUCCAGGGGUGGGAAUUUUUUUUUAAUAUGUGUCAUGAAUAAAGUCGUUUUUGAAA | 0.16 |
| CACAGACAACACGCACCCACACAGACACAGAGGGAAGGGGUUGGGAUGGGGACAGGGUGCACAGCAGGGCAAAGUAGGACCCCAGCCCCU | 2 |
| GUCCUGUGCUACACAUCGUAUGUACCGAAUCGGGGUUUGGGGUUUUUUUGGGGAGGGGAAAGUAUUAUGUUACGCCGUUCGGAUCUGCAC | 0.678 |
| UCCUGUGCUACACAUCGUAUGUACCGAAUCGGGGUUUUUGGGGUUUUUGGUUUUUGGGGAAAGUAUUAUGUUACGCCGUUCGGAUCUGCA | -0.128 |
| CCUGUGCUACACAUCGUAUGUACCGAAUCGGGGUUUUUUGGGUUUUUUGGUUUUUUGGGGAAAGUAUUAUGUUACGCCGUUCGGAUCUGC | -0.794 |

Study 2
Target: Hepatocyte nuclear factor 3-alpha (Foxa1, Mus musculus, UniProt P35582, residues 1-468, full length assumed)
Method: EMSA with sequencing
Molecule type: double-stranded DNA, one strand shown
Medium: in vitro
Concentration: 10 and 20 nM
Setting: whole designed probe, mean of two concentrations, ends assumed
Baseline: negative control set to 0
Direction: higher = stronger binding
All sequences stand within: GTGAGCGGTGCCCATTGATGGGGAAC … TTTCACTGGGATCGTGGGGAC
Construct (chain): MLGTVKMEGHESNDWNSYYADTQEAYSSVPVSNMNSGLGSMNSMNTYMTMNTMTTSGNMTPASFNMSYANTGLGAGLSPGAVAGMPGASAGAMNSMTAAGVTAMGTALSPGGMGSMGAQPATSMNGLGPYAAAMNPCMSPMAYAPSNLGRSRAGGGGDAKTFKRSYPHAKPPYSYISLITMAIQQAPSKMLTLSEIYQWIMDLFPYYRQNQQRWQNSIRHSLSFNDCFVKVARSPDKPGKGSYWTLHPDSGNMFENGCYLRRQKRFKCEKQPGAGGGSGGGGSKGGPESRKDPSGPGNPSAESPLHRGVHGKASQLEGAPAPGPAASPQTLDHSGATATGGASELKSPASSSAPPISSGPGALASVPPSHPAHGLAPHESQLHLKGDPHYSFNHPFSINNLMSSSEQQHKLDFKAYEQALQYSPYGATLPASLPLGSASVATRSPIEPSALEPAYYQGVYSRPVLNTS
| Sequence | normalised bound fraction |
| --- | --- |
| AGATTAAGTGTTACACTTCTTGCTTTGTTAGATAAATTGAACCACAGCAAATTTTACAAACATAATTTGTCCATATTTTCATAATAAACTCTATGTAATCTTCAGTTTTCTTGTTCCTTTAAAAACAAAATAATTCATATCAAACTGTCTTGAATAAGAAAGGCAAACCAGTCACAAGTCCACAATATTAAAG | 0.00715 ratio |
| AAAAGATTTGGTATCGTTTAAAAAAAAAAAAAAGCTGGGTGGGGCCGAGGAGAATCCACCCAAACTTTCCTCAGGAAGTAGGATGTTTACTGAGTAAATATGCGGTAGTCACAGAAACACCTGCTACTCCTTTAAGACCTCAGGAGCCACCACCGCCACCTCCTGGCCACATCCGGGCACTTCTCTGCAAACT | 0.329 ratio |
| ATCTTCCCCCTCTTCCTTGCCCCACCAGCTCACCTTCCCGGGTATCTGCAAATAAGTATTTATTTTCAAGCCGGCATTCGTTAACCCTCTTCTGGCGCAAACTGCACATTGGTCTGGATCTAACATGGTCCTTTGGCGACGCCAGGCTCCGGGAGAGCAAAGCACCGTGTCAGGGCCATGATCCGGGGTGGCC | 0.144 ratio |
| TCTCCCCTGCAGGAGTTTGGACTAATCAGGTCACTACACCCTGACACAGCAGTCTCCAGTCTCTACCACTCATTGTTTGCAACATGAGCTAATGTCAACAGACCACAGAGAAGTTAGCAACAGGGAAGGGAAAACACTTTAATCTCAAGGTCATCCCCAGGGTTCAGCAGGACATATATCCTATATCGAATCA | 0.369 ratio |
| ATAAAGCTATTTCTCTGCTATTTGAAAATACAATAGAAGAAACTGAGCCTTTTAGACATTCGTCAGCCTCTTCTAATAAACCTTTGTACTATGTAATCTTCAGGAAATTCAAAGCTCGGAGACTTTTCCTATTCTTTTCCTCTAGACCTGACAATCAAACACTTCCCCGCTTCAACACATCTCATTTTCTAGA | 0.00636 ratio |
| GTGAGAAAGAAAATATAAAAGAGCTGAGTCAAATCTGGAGTCAATAAAGGTTTGTAGTTCTTCAAACAAGAACCCTTGCTCTGAATTCTAAAAGTAAATAACAGACATGCTGAAAAAATATTTCATTTTATGAAAGGTTCTGCACCAAAGCCTTTTACAAAAACAGTCTACAAAACCTACTAAACATCCTGTT | 0.31 ratio |
| TAACTCCCAAAAAACACACAGAAAGCCATTACAAAGCATAAAACAGACCAAGGAAAAATTAATAGCACTTGAACTTCCCACCAGATCCCAAAGTAATCTTGAAGCCCATAGTGTCACAGTCAACACTTCAAAAAACTCCTTCAGGTGGGCCCCAAGATCTCCATACATGGGAAAACCATGTCAGAAAGATGAA | -0.018 ratio |
| AATATTTCAAACACTACGTACCCCAACTGACATTTGAGTAGCAGTTAAGTTCTTGGAACGCTGCCATTTTGGTTACGTAACATCTAGCTCATTGTAAACAGGATGAAATAGGGCAGTTAAAAGACTAATGGTCAGTGAAATCTACAACAGGAATGGAAAGAATTTTCCCCTTAAAAATTTGGAAATCCTTATT | 0.217 ratio |

Study 3
Target: Histone acetyltransferase KAT6A, both winged helices, GST fusion (KAT6A, Homo sapiens, UniProt Q92794, residues 1-181)
Method: protein binding microarray
Molecule type: double-stranded DNA, one strand shown
Medium: in vitro
Concentration: not given
Setting: 8-mer, flanks averaged, mean of 2 arrays, mostly near background
Baseline: not given
Direction: higher = stronger binding
Construct (chain): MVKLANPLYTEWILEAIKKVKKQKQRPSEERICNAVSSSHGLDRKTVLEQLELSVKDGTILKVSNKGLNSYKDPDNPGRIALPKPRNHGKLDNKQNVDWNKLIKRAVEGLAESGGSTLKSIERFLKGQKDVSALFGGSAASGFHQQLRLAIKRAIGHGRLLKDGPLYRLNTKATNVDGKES
| Sequence | E-score |
| --- | --- |
| ATAGTTGC | -0.0605 |
| GAACCATC | 0.0619 |
| AGCCTAGG | -0.171 |
| TAAACGGA | 0.248 |
| CATAATTC | -0.00573 |
| ACCGCCCT | -0.00394 |
| GCGCTTCC | 0.34 |
| AGTACACA | 0.0363 |
| CGGCACAC | 0.152 |
| AAGGTAGT | -0.164 |
| CGTTCGAG | 0.075 |
| GCCAGGGC | -0.0306 |
| AGAGACAG | -0.165 |
| AGGCGAAC | 0.152 |
| AATATACT | -0.163 |
| GATGTGAA | -0.0768 |
| CTACCCAG | -0.273 |
| GCTGCGCA | 0.21 |
| AGTCGAGG | -0.141 |
| ACTCAGGA | -0.0822 |
| ATCAGGTA | -0.147 |
| CGTCAGCC | 0.162 |
| CGACGCTC | 0.216 |
| AGACCCAT | -0.152 |

Study 4
Target: ATF1, bZIP domain (human)
Method: DHFR protein complementation
Medium: yeast
Setting: single substitutions, most at no-binding floor
Baseline: wild-type JUN-FOS pair
Direction: higher = stronger binding
Parent: JUN, bZIP domain (human); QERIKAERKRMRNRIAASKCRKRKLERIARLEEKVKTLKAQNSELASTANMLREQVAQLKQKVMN; partner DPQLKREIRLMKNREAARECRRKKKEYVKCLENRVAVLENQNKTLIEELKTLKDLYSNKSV
| Variant | binding fitness [natural log] |
| --- | --- |
| Q41P | -1.54 |
| K34Q | -1.5 |
| S43D | -1.55 |
| A49P | -1.53 |
| A40T | -1.52 |
| M51V | -1.48 |
| V56T | -1.36 |
| Q41R | -1.5 |
| K36T | -1.46 |
| Q41V | -1.49 |
| L45E | -1.57 |
| L59S | -1.51 |
| E44W | -1.51 |
| E44Y | -1.48 |

Study 5
Target: Interferon regulatory factor 7, full length, phosphomimetic (IRF7, Homo sapiens, UniProt Q92985, residues 1-503, S101K/S471D/S472D/S475D/S476D/S477D/S483D/S484D/S487D)
Method: protein-binding microarray
Molecule type: double-stranded DNA, one strand shown
Medium: in vitro
Concentration: 250 nM
Setting: 60-bp whole probe
Added: salmon DNA 0.4 mg/ml
Baseline: random background probes
Direction: higher = stronger binding
All sequences stand within: GCCTAGCAC … GTGCTAGGTCTTGATTCGCTTGACGCTGCTG
Residues (chain): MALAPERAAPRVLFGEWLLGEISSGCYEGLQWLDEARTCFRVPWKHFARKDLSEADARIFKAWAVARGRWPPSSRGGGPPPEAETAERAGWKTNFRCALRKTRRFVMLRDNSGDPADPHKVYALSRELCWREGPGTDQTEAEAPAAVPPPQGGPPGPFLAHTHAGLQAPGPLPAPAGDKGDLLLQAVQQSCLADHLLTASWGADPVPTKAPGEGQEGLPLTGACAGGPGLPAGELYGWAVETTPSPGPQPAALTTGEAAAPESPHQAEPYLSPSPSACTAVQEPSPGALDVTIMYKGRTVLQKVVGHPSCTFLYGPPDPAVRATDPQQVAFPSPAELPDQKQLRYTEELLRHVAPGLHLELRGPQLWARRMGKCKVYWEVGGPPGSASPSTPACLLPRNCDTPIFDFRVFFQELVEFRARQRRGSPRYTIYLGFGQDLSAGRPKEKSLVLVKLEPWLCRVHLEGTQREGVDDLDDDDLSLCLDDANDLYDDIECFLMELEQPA
| Sequence | log fluorescence [z-score] |
| --- | --- |
| GACGATTTAAGTTTCGAGAC | 4.17 |
| GACGGATTCCTTTCCCTGAC | 1.19 |
| TGGGTCTTGGTTCTCAGCTT | 0.615 |
| GACGGTCTCGGTTTCGAGAC | 8.52 |
| TTAGGTTTTGGTCTCGGTTA | 2.5 |
| GACGGTTTTGGTCTCGGGAC | 1.01 |
| GACGGTTTCGGTTCCGGGAC | 13 |
| GACGGTTTCCTTATCCCGAC | 3.89 |
| TTAGGTCTCGGACTGGGTTG | 0.275 |
| TCATTTTTTGGAATGTCACT | 0.632 |
| CAGTTTTCCTATGTCATTTA | 2.9 |
| TCAATTCTCTGTTTATGACT | 2.43 |

Study 6
Target: CCNA1, cyclin fold, Cln2 fusion (human)
Method: yeast growth competition, sequencing
Medium: yeast
Setting: weak parent motif
Baseline: not given
Direction: higher = stronger binding
Parent: PKN2 docking peptide (human); VSAVRKLDFSDTM; partner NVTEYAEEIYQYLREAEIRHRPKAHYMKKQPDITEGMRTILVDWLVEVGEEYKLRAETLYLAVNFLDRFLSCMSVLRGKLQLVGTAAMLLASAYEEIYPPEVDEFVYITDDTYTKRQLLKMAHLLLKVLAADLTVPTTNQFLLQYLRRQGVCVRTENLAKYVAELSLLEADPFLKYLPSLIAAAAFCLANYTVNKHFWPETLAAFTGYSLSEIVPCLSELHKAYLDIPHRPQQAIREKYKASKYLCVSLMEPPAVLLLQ
| Variant | normalised enrichment score |
| --- | --- |
| VSAVRKLHFSDTM [D8H] | 0.397 |
| VSAVRRLDFSDTM [K6R] | 1.33 |
| VSTVRKLDFSDTM [A3T] | 0.519 |
| VGAVRKLDFSDTM [S2G] | 1.11 |
| VSAVCKLDFSDTM [R5C] | 0.109 |
| VSAARKLDFSDTM [V4A] | 1.31 |
| VSAVRMLDFSDTM [K6M] | 0.895 |
| VSAVRKLDFDDTM [S10D] | 1.17 |
| VSIVRKLDFSDTM [A3I] | 1.27 |
| VSAVRKLPFSDTM [D8P] | 0.209 |
| VSAVRKLDFVDTM [S10V] | 0.313 |
| VSAVFKLDFSDTM [R5F] | 0.177 |
| VSAVRKYDFSDTM [L7Y] | 0.0062 |
| VSWVRKLDFSDTM [A3W] | 0.174 |
